Measured values pooled from the literature.
Each line is one published result; not all experiments were run side by side. ± gives the spread as reported.
Organism: Escherichia coli

Cc1c2c(cc3oc(=O)cc(-c4ccc(Cl)cc4)c13)C(=O)c1cccc(O)c1C2=O gave an inhibition zone of 8 mm (microbial growth, disc diffusion; MTCC739; 100 µg/disc).
O=C1c2ccccc2C(=O)c2c1ccc1c2C(C(=O)NCc2ccccc2)C(=O)C1c1ccccc1 (stereo not shown) gave an inhibition zone of 8 mm (microbial growth, disc diffusion; MTCC739; 100 µg/mL, 24 h).
For S=c1n(CN2CCN(c3ccccc3)CC2)nc(C23CC4CC(CC(C4)C2)C3)n1-c1ccccc1, the inhibition zone was 12 mm (microbial growth, disc diffusion; IFO3301; 200 µg/disc, 24 h).
O=C1c2ccccc2C(=O)c2c1ccc1c2C(C(=O)Nc2ccccc2Cl)C(=O)C1c1ccccc1 (stereo not shown) gave an inhibition zone of 10 mm (microbial growth, disc diffusion; MTCC739; 100 µg/mL, 24 h).
For CCOC(=O)c1cnc(N/N=C/c2c(-c3ccc(Cl)cc3)nc3ncccn23)s1, the inhibition zone was 13 mm (microbial growth, well diffusion; ATCC25922; 100 µg/mL).
Cc1cccc(NCC(=O)Nc2nc3ccccc3s2)c1 gave an inhibition zone of 0 mm (microbial growth, disc diffusion; 100 µg/mL, 24 h).
For C=C(CO)C(=O)O[C@H]1CC(=C)[C@@H]2C[C@H](O)[C@](O)(CCl)[C@@H]2[C@H]2OC(=O)C(=C)C12 (stereo partly shown), the inhibition zone was 9 ± 1.3 mm (concentration not given).
COc1c2c(cc3oc(=O)cc(-c4ccc(Cl)cc4)c13)C(=O)c1cc(C)cc(O)c1C2=O gave an inhibition zone of 15 mm (microbial growth, disc diffusion; MTCC739; 100 µg/disc).
For CCOC(=O)c1sc(N/N=C/c2c(-c3ccc(C)cc3)nc3ncccn23)nc1C, the inhibition zone was 18 mm (microbial growth, well diffusion; ATCC25922; 100 µg/mL).
Cc1cc(O)c2c(c1)C(=O)c1cc3oc(=O)cc(-c4ccc(Cl)cc4)c3c(O)c1C2=O gave an inhibition zone of 10 mm (microbial growth, disc diffusion; MTCC739; 100 µg/disc).
For O=C1c2ccccc2C(=O)c2c1ccc1c2C(C(=O)Nc2ccccc2)C(=O)C1c1ccccc1 (stereo not shown), the inhibition zone was 8 mm (microbial growth, disc diffusion; MTCC739; 100 µg/mL, 24 h).
For COc1cc(OC)c2c(c1)C(=O)c1cc3oc(=O)cc(C)c3c(O)c1C2=O, the inhibition zone was 10 mm (microbial growth, disc diffusion; MTCC739; 100 µg/disc).
Cn1c(C23CC4CC(CC(C4)C2)C3)nn(CCN2CCCC2)c1=S has an inhibition zone of 17 mm (microbial growth, disc diffusion; IFO3301; 200 µg/disc, 24 h).
The inhibition zone of CCOC(=O)c1cnc(N/N=C/c2c(-c3ccc(OC)cc3)nc3ncccn23)s1 is reported as 15 mm (microbial growth, well diffusion; ATCC25922; 100 µg/mL).
With COc1cc(NC(=O)CSc2nc3ccccc3c(=O)n2-c2ccc(S(N)(=O)=O)cc2)cc(OC)c1OC the inhibition zone was 13 mm (microbial growth, well diffusion; ATCC25922; 500 µg/mL, 24 h).
The inhibition zone of CN(C)CCn1nc(C23CC4CC(CC(C4)C2)C3)n(C)c1=S is reported as 10 mm (microbial growth, disc diffusion; IFO3301; 200 µg/disc, 24 h).
With Cc1cccc([N+](=O)[O-])c1NC(=O)CSc1nc2ccccc2c(=O)n1-c1ccc(S(N)(=O)=O)cc1 the inhibition zone was 16 mm (microbial growth, well diffusion; ATCC25922; 500 µg/mL, 24 h).
Cc1cc(=O)oc2cc3c(c(C)c12)C(=O)c1c(O)cccc1C3=O gave an inhibition zone of 8 mm (microbial growth, disc diffusion; MTCC739; 100 µg/disc).
The inhibition zone of NS(=O)(=O)c1ccc(-n2c(SCC(=O)Nc3ccc([N+](=O)[O-])cc3[N+](=O)[O-])nc3ccccc3c2=O)cc1 is reported as 15 mm (microbial growth, well diffusion; ATCC25922; 500 µg/mL, 24 h).
Cc1cc(O)c2c(c1)C(=O)c1cc3oc(=O)cc(-c4ccc(O)cc4)c3c(O)c1C2=O gave an inhibition zone of 10 mm (microbial growth, disc diffusion; MTCC739; 100 µg/disc).
For CCN(CC)CCn1nc(C23CC4CC(CC(C4)C2)C3)n(C)c1=S, the inhibition zone was 12 mm (microbial growth, disc diffusion; IFO3301; 200 µg/disc, 24 h).
For Cc1cc([N+](=O)[O-])ccc1NC(=O)CSc1nc2ccccc2c(=O)n1-c1ccc(S(N)(=O)=O)cc1, the inhibition zone was 32 mm (microbial growth, well diffusion; ATCC25922; 500 µg/mL, 24 h).
